Assay results from different studies.
Numbered parts are unrelated; each lists some results of a single study.
UniProt Q8IWQ3, sequence (whole entry, looked up): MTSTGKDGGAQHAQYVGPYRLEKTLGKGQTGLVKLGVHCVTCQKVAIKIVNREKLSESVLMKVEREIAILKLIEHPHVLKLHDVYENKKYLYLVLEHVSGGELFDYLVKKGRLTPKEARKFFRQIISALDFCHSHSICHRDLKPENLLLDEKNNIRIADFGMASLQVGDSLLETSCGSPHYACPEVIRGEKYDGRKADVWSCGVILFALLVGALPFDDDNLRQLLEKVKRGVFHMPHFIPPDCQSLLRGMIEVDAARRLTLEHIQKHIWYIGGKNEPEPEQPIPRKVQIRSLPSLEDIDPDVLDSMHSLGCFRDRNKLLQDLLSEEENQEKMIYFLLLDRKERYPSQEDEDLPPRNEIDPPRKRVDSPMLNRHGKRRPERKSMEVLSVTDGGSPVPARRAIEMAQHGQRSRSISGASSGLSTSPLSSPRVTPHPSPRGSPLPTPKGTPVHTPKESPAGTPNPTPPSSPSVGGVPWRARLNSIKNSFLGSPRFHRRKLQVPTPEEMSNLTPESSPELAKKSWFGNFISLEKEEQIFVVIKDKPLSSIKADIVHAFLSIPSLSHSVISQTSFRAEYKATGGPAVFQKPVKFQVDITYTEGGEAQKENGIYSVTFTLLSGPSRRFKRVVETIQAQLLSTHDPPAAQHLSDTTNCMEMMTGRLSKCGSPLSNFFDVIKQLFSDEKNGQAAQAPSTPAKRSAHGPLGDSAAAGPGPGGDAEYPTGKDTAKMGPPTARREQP
UniProt P06493, sequence (whole entry, looked up): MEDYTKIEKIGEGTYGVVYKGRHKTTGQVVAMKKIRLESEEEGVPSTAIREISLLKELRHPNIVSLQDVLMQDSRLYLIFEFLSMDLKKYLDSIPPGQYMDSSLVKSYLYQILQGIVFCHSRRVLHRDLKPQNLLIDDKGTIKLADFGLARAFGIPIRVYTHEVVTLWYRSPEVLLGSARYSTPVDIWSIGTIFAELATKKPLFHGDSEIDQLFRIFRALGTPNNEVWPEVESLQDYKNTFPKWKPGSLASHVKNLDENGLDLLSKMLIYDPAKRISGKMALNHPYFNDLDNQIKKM
UniProt Q9Y4K4, sequence (whole entry, looked up): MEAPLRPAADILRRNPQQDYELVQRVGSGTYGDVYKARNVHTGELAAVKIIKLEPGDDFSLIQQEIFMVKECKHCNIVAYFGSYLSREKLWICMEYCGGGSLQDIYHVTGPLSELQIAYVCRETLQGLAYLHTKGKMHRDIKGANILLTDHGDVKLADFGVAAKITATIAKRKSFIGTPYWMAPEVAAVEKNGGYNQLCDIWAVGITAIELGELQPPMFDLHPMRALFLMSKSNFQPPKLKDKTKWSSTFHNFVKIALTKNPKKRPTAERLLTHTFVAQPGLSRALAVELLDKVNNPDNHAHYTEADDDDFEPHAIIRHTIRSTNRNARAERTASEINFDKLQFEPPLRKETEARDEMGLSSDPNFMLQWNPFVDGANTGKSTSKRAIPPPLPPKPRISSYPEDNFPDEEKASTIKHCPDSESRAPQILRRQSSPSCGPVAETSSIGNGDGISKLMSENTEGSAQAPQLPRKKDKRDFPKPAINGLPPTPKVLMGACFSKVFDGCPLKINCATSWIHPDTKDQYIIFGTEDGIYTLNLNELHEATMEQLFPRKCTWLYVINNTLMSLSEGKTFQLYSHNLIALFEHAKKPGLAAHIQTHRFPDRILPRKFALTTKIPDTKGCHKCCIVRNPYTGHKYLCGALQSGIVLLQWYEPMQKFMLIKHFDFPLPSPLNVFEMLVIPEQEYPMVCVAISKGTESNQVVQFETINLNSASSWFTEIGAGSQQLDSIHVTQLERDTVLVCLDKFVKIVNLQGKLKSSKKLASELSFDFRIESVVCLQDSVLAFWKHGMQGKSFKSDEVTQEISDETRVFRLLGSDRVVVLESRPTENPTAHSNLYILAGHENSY
UniProt Q8WU08, sequence (whole entry, looked up): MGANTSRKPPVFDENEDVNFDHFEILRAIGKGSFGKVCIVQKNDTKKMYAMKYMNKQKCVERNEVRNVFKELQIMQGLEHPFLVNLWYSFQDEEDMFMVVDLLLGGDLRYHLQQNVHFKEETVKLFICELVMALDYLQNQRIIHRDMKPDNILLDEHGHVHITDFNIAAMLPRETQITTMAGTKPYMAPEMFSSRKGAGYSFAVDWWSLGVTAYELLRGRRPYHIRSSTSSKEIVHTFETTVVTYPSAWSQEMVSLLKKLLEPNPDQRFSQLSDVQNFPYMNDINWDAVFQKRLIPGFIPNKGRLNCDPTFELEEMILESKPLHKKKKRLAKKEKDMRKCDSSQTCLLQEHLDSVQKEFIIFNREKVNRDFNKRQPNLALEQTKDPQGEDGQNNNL
UniProt Q9P0L2, sequence (whole entry, looked up): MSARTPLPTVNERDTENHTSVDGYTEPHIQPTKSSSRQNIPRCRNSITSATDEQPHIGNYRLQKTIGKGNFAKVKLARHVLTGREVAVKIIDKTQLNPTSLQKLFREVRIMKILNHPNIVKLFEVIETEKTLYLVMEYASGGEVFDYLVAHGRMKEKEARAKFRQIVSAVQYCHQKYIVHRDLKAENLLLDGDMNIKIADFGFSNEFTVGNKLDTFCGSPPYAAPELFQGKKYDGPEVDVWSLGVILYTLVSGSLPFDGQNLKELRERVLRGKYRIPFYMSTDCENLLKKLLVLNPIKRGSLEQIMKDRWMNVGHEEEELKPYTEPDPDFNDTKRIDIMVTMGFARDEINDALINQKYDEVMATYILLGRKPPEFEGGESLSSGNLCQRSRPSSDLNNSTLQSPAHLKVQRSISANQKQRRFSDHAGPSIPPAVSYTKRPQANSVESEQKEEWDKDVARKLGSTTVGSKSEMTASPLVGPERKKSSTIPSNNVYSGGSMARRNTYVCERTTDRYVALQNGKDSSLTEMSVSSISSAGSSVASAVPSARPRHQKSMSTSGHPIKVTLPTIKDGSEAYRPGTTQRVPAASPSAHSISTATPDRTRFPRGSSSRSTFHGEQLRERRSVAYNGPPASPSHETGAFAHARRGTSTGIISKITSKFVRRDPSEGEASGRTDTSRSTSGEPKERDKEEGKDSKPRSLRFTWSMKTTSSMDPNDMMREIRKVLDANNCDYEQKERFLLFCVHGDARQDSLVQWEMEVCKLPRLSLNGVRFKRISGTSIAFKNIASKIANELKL
UniProt P10721, sequence (whole entry, looked up): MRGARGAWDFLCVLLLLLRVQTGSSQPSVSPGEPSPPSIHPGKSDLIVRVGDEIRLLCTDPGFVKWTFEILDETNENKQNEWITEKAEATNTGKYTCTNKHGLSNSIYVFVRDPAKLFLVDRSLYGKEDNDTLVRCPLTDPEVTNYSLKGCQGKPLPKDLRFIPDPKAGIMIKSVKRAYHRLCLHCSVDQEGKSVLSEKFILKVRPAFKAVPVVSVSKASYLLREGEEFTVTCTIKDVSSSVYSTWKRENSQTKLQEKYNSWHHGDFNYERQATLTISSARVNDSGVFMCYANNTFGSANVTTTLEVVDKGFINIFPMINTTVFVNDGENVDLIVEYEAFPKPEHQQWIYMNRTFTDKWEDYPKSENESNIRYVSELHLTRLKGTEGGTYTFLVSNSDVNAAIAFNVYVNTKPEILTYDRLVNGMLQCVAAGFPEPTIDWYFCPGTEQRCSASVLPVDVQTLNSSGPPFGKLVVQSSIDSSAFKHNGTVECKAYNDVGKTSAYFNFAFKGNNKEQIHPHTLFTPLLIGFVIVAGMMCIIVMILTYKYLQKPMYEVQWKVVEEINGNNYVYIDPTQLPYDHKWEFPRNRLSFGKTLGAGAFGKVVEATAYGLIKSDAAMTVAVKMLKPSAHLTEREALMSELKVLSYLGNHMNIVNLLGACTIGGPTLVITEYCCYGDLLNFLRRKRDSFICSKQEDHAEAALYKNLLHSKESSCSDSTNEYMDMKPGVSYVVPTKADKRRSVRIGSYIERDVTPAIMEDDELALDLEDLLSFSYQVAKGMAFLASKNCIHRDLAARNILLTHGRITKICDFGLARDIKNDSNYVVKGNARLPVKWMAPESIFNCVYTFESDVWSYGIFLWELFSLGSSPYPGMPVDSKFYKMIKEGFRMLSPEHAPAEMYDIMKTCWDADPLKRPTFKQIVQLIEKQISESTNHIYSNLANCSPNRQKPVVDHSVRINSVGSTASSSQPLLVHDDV
UniProt O75716, sequence (whole entry, looked up): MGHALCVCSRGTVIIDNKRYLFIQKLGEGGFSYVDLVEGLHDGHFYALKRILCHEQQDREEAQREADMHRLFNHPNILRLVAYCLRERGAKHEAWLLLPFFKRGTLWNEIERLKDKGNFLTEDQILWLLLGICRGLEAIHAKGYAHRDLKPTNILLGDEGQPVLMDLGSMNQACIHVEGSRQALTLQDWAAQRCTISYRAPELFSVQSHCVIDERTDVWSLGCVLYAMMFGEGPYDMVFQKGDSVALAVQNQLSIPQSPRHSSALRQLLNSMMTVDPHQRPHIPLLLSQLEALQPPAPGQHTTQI
UniProt P49760, sequence (whole entry, looked up): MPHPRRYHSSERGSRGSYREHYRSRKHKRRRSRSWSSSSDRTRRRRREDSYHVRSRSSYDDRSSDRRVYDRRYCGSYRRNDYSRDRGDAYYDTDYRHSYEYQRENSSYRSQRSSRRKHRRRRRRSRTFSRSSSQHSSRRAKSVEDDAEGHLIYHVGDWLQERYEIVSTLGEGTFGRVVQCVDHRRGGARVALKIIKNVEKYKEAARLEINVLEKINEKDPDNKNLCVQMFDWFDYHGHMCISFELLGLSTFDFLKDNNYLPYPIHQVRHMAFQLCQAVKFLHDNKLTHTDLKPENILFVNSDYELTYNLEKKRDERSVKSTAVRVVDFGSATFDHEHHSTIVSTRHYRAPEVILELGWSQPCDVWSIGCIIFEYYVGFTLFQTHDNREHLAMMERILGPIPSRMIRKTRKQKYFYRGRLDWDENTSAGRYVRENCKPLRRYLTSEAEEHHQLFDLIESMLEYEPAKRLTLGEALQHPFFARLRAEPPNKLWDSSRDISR

Series 1
SMILES: CC(C)S(=O)(=O)c1ccc2nccc(Nc3ccc4sc(C5CCCC5)nc4c3)c2c1.Cl
Observed: kinase activity
Action: inhibitor
Tested at: 1 µM
Measurement: remaining activity
target = NEK7 (Homo sapiens, UniProt Q8TDX7); value = 82%
target = CDK1 (Homo sapiens, UniProt P06493); value = 79%
target = NTRK1 (Homo sapiens, UniProt P04629); value = 95%
target = SNRK (Homo sapiens, UniProt Q9NRH2); value = 95%
target = PLK3 (Homo sapiens, UniProt Q9H4B4); value = 96%
target = MAP4K5 (Homo sapiens, UniProt Q9Y4K4); value = 99%
target = TSSK1B (Homo sapiens, UniProt Q9BXA7); value = 98%
target = GRK1 (Homo sapiens, UniProt Q15835); value = 102%
target = TLK2 (Homo sapiens, UniProt Q86UE8); value = 87%
target = STK39 (Homo sapiens, UniProt Q9UEW8); value = 99%
target = CLK2 (Homo sapiens, UniProt P49760); value = 103%
target = IRAK4 (Homo sapiens, UniProt Q9NWZ3); value = 110%
target = LTK (Homo sapiens, UniProt P29376); value = 103%
target = BRSK2 (Homo sapiens, UniProt Q8IWQ3); value = 104%
target = PDGFRB (Homo sapiens, UniProt P09619); value = 89%
target = CAMKK1 (Homo sapiens, UniProt Q8N5S9); value = 92%

Series 2
SMILES: O=c1c(-c2ccc(F)cc2)c(-c2ccncc2)[nH]n1-c1ccc(Cl)cc1
Observed: enzyme activity
Action: inhibitor
Tested at: 0.5 µM
Reference: control
Measurement: remaining activity
target = HIPK2 (Homo sapiens, UniProt Q9H2X6); value = 89%
target = RPS6KA6 (Homo sapiens, UniProt Q9UK32); value = 90.3%
target = TSSK2 (Homo sapiens, UniProt Q96PF2); value = 80%
target = PRKACG (Homo sapiens, UniProt P22612); value = 91.8%
target = MAPKAPK3 (Homo sapiens, UniProt Q16644); value = 101%
target = RPS6KA5 (Homo sapiens, UniProt O75582); value = 93.5%
target = STK17A (Homo sapiens, UniProt Q9UEE5); value = 105%
target = WNK3 (Homo sapiens, UniProt Q9BYP7); value = 93.6%
target = PDPK1 (Homo sapiens, UniProt O15530); value = 104%
target = BLK (Homo sapiens, UniProt P51451); value = 91.6%
target = DYRK3 (Homo sapiens, UniProt O43781); value = 82.7%
target = HIPK4 (Homo sapiens, UniProt Q8NE63); value = 94.6%
target = Cyclin-dependent kinase 6, with cyclin D3 (CDK6, Homo sapiens, UniProt Q00534); value = 93.7%
target = EPHB4 (Homo sapiens, UniProt P54760); value = 97.2%
target = PHKG1 (Homo sapiens, UniProt Q16816); value = 94.1%
target = Cyclin-dependent kinase 1, with cyclin B (CDK1, Homo sapiens, UniProt P06493); value = 106%
target = AXL (Homo sapiens, UniProt P30530); value = 113%
target = CAMK2B (Homo sapiens, UniProt Q13554); value = 93.7%
target = SRMS (Homo sapiens, UniProt Q9H3Y6); value = 104%
target = Cyclin-dependent kinase 4, with cyclin D3 (CDK4, Homo sapiens, UniProt P11802); value = 101%
target = EPHB1 (Homo sapiens, UniProt P54762); value = 90.5%
target = EPHA4 (Homo sapiens, UniProt P54764); value = 93.5%
target = STK16 (Homo sapiens, UniProt O75716); value = 100%
target = MAP4K4 (Homo sapiens, UniProt O95819); value = 93.5%

Series 3
Host: mouse
Medium: microsomes or S9
Tested at: 2 µM
Time: 0.5 h
Measurement: remaining compound
Structure (SMILES) = O=C(Nc1cccc2c1OCCC2O)c1cc2sccc2[nH]1 (stereo not drawn); value = 38%
Structure (SMILES) = CC(=O)c1c(-c2cccc3ccccc23)nc2n(CCN3CCCCC3)c3ccccc3n12; value = 0.0282%
Structure (SMILES) = Cc1cc(OC2CN(S(=O)(=O)N(C)C)C2)cc(=O)n1C; value = 60%
Structure (SMILES) = O=C1CC(N2CCC3(CC2)OCCO3)C(=O)N1c1ccc2c(c1)OCO2 (stereo not drawn); value = 39.4%
Structure (SMILES) = CC(C)O[C@H]1C[C@@H](NC(=O)Nc2ccnnc2)C1; value = 88.7%
Structure (SMILES) = CN1CCN(c2nsc(-c3ccccc3)c2C#N)CC1; value = 0.381%
Structure (SMILES) = CN(C)S(=O)(=O)N1CCN(Cc2c(O)occ(CN3CCOCC3)c2=O)CC1; value = 84.7%
Structure (SMILES) = COC(=O)c1c(NCc2ccccc2C(F)(F)F)c2cccc(Cl)c2[nH]c1=O; value = 47.7%
Structure (SMILES) = Cc1cc(C)n(-c2nc3cc(Cl)ccc3nc2N2CCN(c3ccccn3)CC2)n1; value = 5%
Structure (SMILES) = CCN1C(=O)C(C)(C)c2cc(S(=O)(=O)Nc3cnn(CC)c3)ccc21; value = 39.5%

Series 4
SMILES: CC1=C(C#N)[C@@H](c2ccc3[nH]nc(C)c3c2)C(C#N)=C(c2ccc(Cl)cc2)N1
Technique: competition with immobilised ligand
Tested at: 1 µM
Measurement: remaining binding
target = RIOK1 (Homo sapiens, UniProt Q9BRS2); assay = cell-free assay; value = 100%
target = BRSK2 (Homo sapiens, UniProt Q8IWQ3); assay = cell-free assay; value = 100%
target = ZAP70 (Homo sapiens, UniProt P43403); assay = cell-free assay; value = 85.4%
target = FGFR3 (Homo sapiens, UniProt P22607); assay = cell-free assay; value = 91.2%
target = Mast/stem cell growth factor receptor Kit, autoinhibited (KIT, Homo sapiens, UniProt P10721); assay = cell-free assay; value = 71.2%
target = MYLK3 (Homo sapiens, UniProt Q32MK0); assay = cell-free assay; value = 100%
target = PRKCI (Homo sapiens, UniProt P41743); assay = cell-free assay; value = 99.4%
target = CHEK2 (Homo sapiens, UniProt O96017); assay = cell-free assay; value = 100%
target = NTRK3 (Homo sapiens, UniProt Q16288); assay = cell-free assay; value = 100%
target = FLT3 (Homo sapiens, UniProt P36888, F691L/ITD); assay = cell-free assay; value = 100%
target = COQ8A (Homo sapiens, UniProt Q8NI60); assay = cell-free assay; value = 97.8%
target = PIP4K2C (Homo sapiens, UniProt Q8TBX8); assay = cell-free assay; value = 100%
target = PRKCE (Homo sapiens, UniProt Q02156); assay = cell-free assay; value = 100%
target = FGR (Homo sapiens, UniProt P09769); assay = cell-free assay; value = 100%
target = ALK (Homo sapiens, UniProt Q9UM73, L1196M); assay = cell-free assay; value = 100%
target = CSNK1G3 (Homo sapiens, UniProt Q9Y6M4); assay = cell-free assay; value = 100%
target = SLK (Homo sapiens, UniProt Q9H2G2); assay = cell-free assay; value = 100%
target = CAMK1D (Homo sapiens, UniProt Q8IU85); assay = cell-free assay; value = 100%
target = ULK1 (Homo sapiens, UniProt O75385); assay = cell-free assay; value = 100%
target = PLK4 (Homo sapiens, UniProt O00444); assay = cell-free assay; value = 100%
target = EIF2AK1 (Homo sapiens, UniProt Q9BQI3); assay = cell-free assay; value = 100%
target = DYRK2 (Homo sapiens, UniProt Q92630); assay = cell-free assay; value = 100%
target = PIK3C2G (Homo sapiens, UniProt O75747); assay = cell-free assay; value = 93.9%
target = STK32A (Homo sapiens, UniProt Q8WU08); assay = binding; value = 100%
target = MARK1 (Homo sapiens, UniProt Q9P0L2); assay = cell-free assay; value = 91.1%

Some of these lines once more (series 4):
target = DYRK2 (Homo sapiens, UniProt Q92630); assay = cell-free assay; value = 100%
target = CHEK2 (Homo sapiens, UniProt O96017); assay = cell-free assay; value = 100%
target = PRKCI (Homo sapiens, UniProt P41743); assay = cell-free assay; value = 99.4%
target = ALK (Homo sapiens, UniProt Q9UM73, L1196M); assay = cell-free assay; value = 100%
target = Mast/stem cell growth factor receptor Kit, autoinhibited (KIT, Homo sapiens, UniProt P10721); assay = cell-free assay; value = 71.2%
target = FGR (Homo sapiens, UniProt P09769); assay = cell-free assay; value = 100%
target = EIF2AK1 (Homo sapiens, UniProt Q9BQI3); assay = cell-free assay; value = 100%
target = CAMK1D (Homo sapiens, UniProt Q8IU85); assay = cell-free assay; value = 100%
target = ZAP70 (Homo sapiens, UniProt P43403); assay = cell-free assay; value = 85.4%
target = SLK (Homo sapiens, UniProt Q9H2G2); assay = cell-free assay; value = 100%
target = MARK1 (Homo sapiens, UniProt Q9P0L2); assay = cell-free assay; value = 91.1%
